Measurements gathered from unrelated publications.
Every numbered part comes from another study and shows a few of its results, in no order.

Study 1
Structure (SMILES): COc1ccc(-c2c(Nc3ccccn3)[nH]c3c(C4=CCCCC4)c(-c4ccccc4)nn3c2=O)cc1
Sample: plasma
Route: oral
Notes: single dose
Measurement: plasma concentration, mean
cancer patients; 100 mg, 3 h post-dose: 1160 ng/mL
LC-MS/MS; human; 200 mg twice daily, 8 h: 1510 ng/mL
cancer patients; 150 mg, 4 h post-dose: 1340 ng/mL

Study 2
Host: mouse
Sample: microsomes or S9
Concentration: 2 µM
Time: 0.5 h
Measurement: remaining compound
O=c1[nH]nc(-c2ccc(OCCN3CCCCC3)cc2)cc1-c1ccc(Cl)cc1: 78.3%
COc1cc(C)c(Cl)cc1S(=O)(=O)Nc1ccc(Nc2cc(N(C)C)nc(C)n2)cc1: 1.31%
COc1ccccc1-c1nc(CN(C)S(=O)(=O)c2c(C)cc(C)cc2C)c(C)o1: 0.00619%
Cc1ccc(C)c(NC(=O)N2CCc3[nH]cnc3C2)c1: 71.8%
COc1ccc(Cn2nc(-c3ccc(O)cc3)n(-c3ccc(OCCN(C)C)cc3)c2=O)cc1: 88.8%

Single results of other studies
CC(C)n1cnc(-c2ccc(F)cc2)c1-c1ncc(C(=O)Nc2ccc(N3CCN(C)CC3)cc2)[nH]1  patients with Hypothyroidism (human, idiopathic pulmonary fibrosis; concentration not given, trial, all arms total): 0%
CC(=O)N[C@@H](Cc1c[nH]c2ccccc12)C(=O)N[C@@H](CCC(=O)C=[N+]=[N-])C(=O)OC(C)C  GI inflammation score (histopathology; mouse C57BL/6 CES1-/-, GI tissue; subcutaneous, 0.8 mg/kg; direction not given): 0

Repeated from above (study 2):
COc1cc(C)c(Cl)cc1S(=O)(=O)Nc1ccc(Nc2cc(N(C)C)nc(C)n2)cc1: 1.31%
